Results of several laboratories.
A part holds a random share of what one study measured.

Sample 1 — method: protein binding microarray; form: double-stranded DNA, one strand shown; matrix: in vitro; concentration: not given; reference: not given; reading: higher = stronger binding
Target: Histone acetyltransferase KAT6A, winged helix 1, GST fusion (KAT6A, Homo sapiens, UniProt Q92794, residues 1-85)
Notes: 8-mer, flanks averaged, mean of 2 arrays, mostly near background
Residues (chain): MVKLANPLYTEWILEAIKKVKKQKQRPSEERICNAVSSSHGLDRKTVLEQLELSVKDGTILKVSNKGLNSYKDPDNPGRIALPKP
`AGGATCCC` has an E-score of 0.0229.
With `GCCACCGA` the E-score was -0.0152.
`AAATCGTG` gave an E-score of -0.0562.
The E-score of `AGCAGGGA` is reported as -0.22.
With `ACGGAATG` the E-score was 0.0577.
With `AATCACTG` the E-score was -0.0948.
For `ATTAATGG`, the E-score was -0.0748.
`AAGGCAAC` has an E-score of -0.192.

Sample 2 — mode: inhibitor; concentration: 20 µM
Target: Replicase polyprotein 1ab, nsp13 helicase (rep, Severe acute respiratory syndrome coronavirus 2, UniProt P0DTD1)
The inhibition of `O=C(O)C(Cc1ccccc1)CN(O)C(=O)Cc1ccccc1` (centres unmarked) is reported as 4.43%.
With `CC(C)(C)NCC(O)c1cc(Cl)c(N)c(C(F)(F)F)c1` (centres unmarked) the inhibition was 3.12%.
The inhibition of `CC(C)c1ccc(CC(=O)N2CCC[C@@H](c3cccc(OC(C)(C)C(=O)O)c3)C2)cc1` is reported as 1.87%.
For `COc1ccc(-c2cc(=O)c3c(O)cc(O)cc3o2)cc1O`, the inhibition was 1.81%.
For `O=C(O)CCCCN(CCc1ccccc1OCc1ccc(CCc2ccccc2)cc1)Cc1ccc(C(=O)O)cc1`, the inhibition was 10.8%.
For `CN1CCN(C(=O)O[C@H]2c3nccnc3C(=O)N2c2ccc(Cl)cn2)CC1`, the inhibition was 1.38%.
The inhibition of `CS(=O)(=O)Nc1cc2occ(NC=O)c(=O)c2cc1Oc1ccccc1` is reported as 3.09%.
With `CC(C)c1ccc(NC(=O)c2cccs2)c(-c2nc3ccccc3[nH]c2=O)c1` the inhibition was 25.6%.
The inhibition of `CCNC(=O)/C=C/c1cccc(Br)c1` is reported as 4.68%.
The inhibition of `OC(CN1CCNCC1)Cn1c2ccc(Br)cc2c2cc(Br)ccc21` (centres unmarked) is reported as 9.67%.
`CC(C)(C)NC[C@H](O)c1ccc(O)c(CO)c1` has an inhibition of -1.72%.
The inhibition of `Cc1c(N)nc([C@H](CC(N)=O)NC[C@H](N)C(N)=O)nc1C(=O)N[C@H](C(=O)N[C@H](C)[C@@H](O)[C@H](C)C(=O)N[C@H](C(=O)NCCc1nc(-c2nc(C(=O)NCCCNCCCCN)cs2)cs1)[C@@H](C)O)[C@@H](O[C@@H]1O[C@@H](CO)[C@@H](O)[C@H](O)[C@@H]1O[C@@H]1O[C@H](CO)[C@@H](O)[C@H](OC(N)=O)[C@@H]1O)c1cnc[nH]1` is reported as 6.68%.
With `Cc1noc(C)c1-c1cc(O)cc(C(O)c2ccccc2)c1` (centres unmarked) the inhibition was -1.89%.
`CCN(CC)C(=O)N1CCN(C)CC1` gave an inhibition of 1.93%.
For `Fc1ccc([C@@H]2CCNC[C@H]2COc2ccc3c(c2)OCO3)cc1`, the inhibition was 0.84%.
With `CCCCNc1ccc(C(=O)OCCN(C)C)cc1` the inhibition was -2.05%.
With `N#Cc1cc(-c2n[nH]c(-c3ccncc3)n2)ccn1` the inhibition was -1.32%.
For `CC[C@]12CCCN3CCc4c(n(c5ccccc45)C(=O)C1)[C@@H]32`, the inhibition was -2.09%.
`NS(=O)(=O)c1nn2cc(-c3ccccc3)nc2s1` has an inhibition of 9.65%.
For `C[C@H](NC[C@H](O)CP(=O)(O)CC1CCCCC1)c1ccc(Cl)c(Cl)c1`, the inhibition was 0.83%.
For `Oc1ccc2c3c1O[C@H]1c4c(c5ccccc5n4Cc4ccccc4)C[C@@]4(O)[C@@H](C2)N(CC2CC2)CC[C@]314`, the inhibition was -3.52%.
With `CC(C)CCNc1ncccc1C(=O)N1CCN(Cc2ccccc2)CC1` the inhibition was 6.82%.
`CS(=O)(=O)CCNCc1ccc(-c2ccc3ncnc(Nc4ccc(OCc5cccc(F)c5)c(Cl)c4)c3c2)o1` gave an inhibition of -0.21%.
For `CCOC(=O)n1ccn(C)c1=S`, the inhibition was 7.47%.
`CC[N+](CC)(CCNC(=O)C(=O)NCC[N+](CC)(CC)Cc1ccccc1Cl)Cc1ccccc1Cl` gave an inhibition of 8.93%.

Sample 3 — method: protein-binding microarray; form: double-stranded DNA, one strand shown; matrix: in vitro; concentration: 940 nM top; notes: 60-bp whole probe; added: salmon DNA 0.4 mg/ml; reference: random background probes; reading: higher = stronger binding; all sequences stand within: GCCTAGCAC … GTCTTGATTCGCTTGACGCTGCTG
Target: Interferon regulatory factor 5, full length, phosphomimetic (IRF5, Homo sapiens, UniProt Q13568-2, residues 1-514, S451D/S453D/S456D/S462D)
Under “fitted relative affinity”, `TCACATATATATATGAAACTGTGCTAG` is recorded as 0.486 z-score.
`GACGGTATCGACGATCGGGACGTGCTA` — result for “fitted relative affinity”: 3.88 z-score.
Under “fitted relative affinity”, `GACGGTTTCGGGACTGGGGTCGTGCTA` is recorded as 7.72 z-score.
`TCAATTTTTTTTCTAACACTGTGCTAG` — result for “fitted relative affinity”: 1.31 z-score.
For `TCAATACTCTTCCATGGAACTGTGCTA`, “fitted relative affinity” read 0.468 z-score.
For `GACGATATCAGTATCTAGACGTGCTAG`, “fitted relative affinity” read -0.0857 z-score.
For `CGACATTTTTATTTGCCTTAGTGCTAG`, “fitted relative affinity” read 0.695 z-score.
`TCATCTTTCCACTTTCTACTGTGCTAG`: “fitted relative affinity” 2.16 z-score.

Sample 4 — method: universal PBM; form: double-stranded DNA, one strand shown; matrix: in vitro; concentration: not given; reading: higher = stronger binding
Target: Sal-like protein 4, full length isoform B (SALL4, Homo sapiens, UniProt Q9UJQ4-2, residues 1-616)
Notes: 8-mer, flanks averaged, mean of replicates
For `GGGCTAAC`, the E-score was -0.25.
For `GTAATAAC`, the E-score was 0.386.
The E-score of `CATTAGCA` is reported as 0.134.
For `AGACCTTA`, the E-score was 0.0107.
`ACGGAAAT` gave an E-score of 0.118.
With `TGCACGCA` the E-score was -0.139.
With `TCAGGCGA` the E-score was -0.238.
`CACATAAG` gave an E-score of 0.19.

Single results of other studies
For `COCCCOc1ccnc(C[S+]([O-])c2nc3ccccc3[nH]2)c1C` (centres unmarked), the inhibition was 0.7% (SARS-CoV-2; cytopathic effect; Vero E6; 10 µM).
